Published values collected from several papers.
Numbered parts are unrelated; each lists some results of a single study. Substitutions count along the parent as printed.
UniProt O96017, sequence (whole entry, looked up): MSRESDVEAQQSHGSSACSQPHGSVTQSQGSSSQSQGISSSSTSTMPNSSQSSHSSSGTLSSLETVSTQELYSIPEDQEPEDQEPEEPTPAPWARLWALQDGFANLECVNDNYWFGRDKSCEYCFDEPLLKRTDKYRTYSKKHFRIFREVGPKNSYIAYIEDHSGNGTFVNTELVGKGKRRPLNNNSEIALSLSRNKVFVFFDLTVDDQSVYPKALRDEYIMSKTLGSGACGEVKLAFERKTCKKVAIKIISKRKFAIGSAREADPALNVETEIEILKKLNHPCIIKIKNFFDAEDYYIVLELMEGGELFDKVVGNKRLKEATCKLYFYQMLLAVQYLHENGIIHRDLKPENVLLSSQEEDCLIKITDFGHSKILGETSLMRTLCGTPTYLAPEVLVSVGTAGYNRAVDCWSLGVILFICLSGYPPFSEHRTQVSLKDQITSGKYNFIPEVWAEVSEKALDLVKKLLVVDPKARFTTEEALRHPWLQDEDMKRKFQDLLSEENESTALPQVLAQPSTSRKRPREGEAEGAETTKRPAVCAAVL

Series 1
Target: Interferon regulatory factor 5, full length, phosphomimetic (IRF5, Homo sapiens, UniProt Q13568-2, residues 1-514, S451D/S453D/S456D/S462D)
Method: protein-binding microarray
Form: double-stranded DNA, one strand shown
Matrix: in vitro
Concentration: 940 nM top
Setting: 60-bp whole probe
Together with: salmon DNA 0.4 mg/ml
Relative to: random background probes
Reading: higher = stronger binding
Endpoint: fitted relative affinity
All sequences stand within: GCCTAGCAC … GTCTTGATTCGCTTGACGCTGCTG
GCTTTTTTTTTTTTTTTTTTGTGCTAG: 0.772 z-score
GACGGTATCGCACTGGGGACGTGCTAG: 1.45 z-score
TAGCATGTAATTTGTTTGCAGTGCTAG: -0.167 z-score
GCCGATATCAGACTGGAGACGTGCTAG: -0.598 z-score
TTAGATTTCGGGTCTGGATTAGTGCTA: 1.26 z-score
AACGGTCTCCTTATCCTGACGTGCTAG: 0.432 z-score
TTAGGACTGGGTTTCGGTTCGTGCTAG: 6.03 z-score
GACGGTTGCGACACTGGGGACGTGCTA: 0.0965 z-score

Series 2
Target: TAR DNA-binding protein 43, full length, His tag (TARDBP, Homo sapiens, UniProt Q13148, residues 1-414)
Method: RNA Bind-n-Seq
Form: RNA
Matrix: in vitro
Concentration: 20 nM
Setting: 6-mer, flanks averaged, single round
Together with: 150 mM LiCl
Relative to: input library
Reading: higher = stronger binding
Endpoint: 6-mer enrichment (R)
CUUGAC: 1.07
AUAUAC: 0.878
CAUCCA: 0.856
CGAACC: 0.829
AGAAUC: 0.843
UGGCAG: 1.05
ACAACC: 0.838
AUAGAA: 0.917

Series 3
Target: CEP164, C-terminal peptide (human)
Method: DHFR complementation, deep sequencing
Matrix: yeast
Setting: single substitutions, model-inferred values
Relative to: wild type
Reading: higher = weaker binding
Endpoint: binding free energy change
Starting sequence: PDZK1, PDZ domain 2 (human); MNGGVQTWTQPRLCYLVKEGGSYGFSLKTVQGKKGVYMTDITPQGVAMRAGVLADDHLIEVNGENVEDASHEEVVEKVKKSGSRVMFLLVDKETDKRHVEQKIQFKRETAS; partner HNRVKVYRF
N65V: 0.322 kcal/mol
Y23H: 1.47 kcal/mol
E67P: 1.18 kcal/mol
E60G: -0.0718 kcal/mol
S111W: 0.0157 kcal/mol
D91K: 0.0599 kcal/mol
A54C: 0.0213 kcal/mol
A110W: -0.0938 kcal/mol

Mixed results
CCCCN(CCCC)C(=O)CN1C[C@@H](c2cc(OC)c3c(c2)OCO3)[C@H](C(=O)O)[C@H]1CC(C)(C)CCC  remaining binding (Serine/threonine-protein kinase Chk2 (CHEK2, Homo sapiens, UniProt O96017); cell-free assay, competition with immobilised ligand; 1 µM): 87.8%

Excerpt of the above (series 3):
E67P: 1.18 kcal/mol
E60G: -0.0718 kcal/mol
